Measurements pooled from the literature.
Each line is one published result; not all experiments were run side by side.
Organism: Escherichia coli

`CC(C)C[C@@H](NC(=O)CNC(=O)[C@@H](CCCCN)NC(=O)[C@@H](CC(C)C)NC(=O)[C@@H](CCCCN)NC(=O)[C@@H](CCCNC(=N)N)NC(=O)[C@@H](CC(C)C)NC(=O)[C@@H](CC(C)C)NC(=O)[C@@H](CCCNC(=N)N)NC(=O)[C@H](N)CCCNC(=N)N)C(=O)N[C@H](CCCCN)C(=O)N[C@H](CCCCN)C(=O)N[C@H](Cc1ccc(O)cc1)C(=O)N[C@H](CC(C)C)C(=O)N[C@H](Cc1ccc(O)cc1)C(=O)N[C@H](Cc1ccccc1)C(=O)N[C@H](CCCCN)C(=O)N[C@H](CC(C)C)C(=O)N[C@H](CCC(N)=O)C(=O)N[C@H](CC(C)C)C(=O)N[C@H](CC(C)C)C(=O)N[C@H](CCCCN)C(=O)N[C@H](CCCCN)C(N)=O` gave an MIC of 8 µM (KCTC 1682, Mueller-Hinton broth; added: 2.5 mM CaCl2).
With `CC1(C)SC2C(NC(=O)C(NC(=O)C3=C(O)CNC3=O)c3ccccc3)C(=O)N2C1C(=O)O` (stereo not drawn) the MIC was > 200 µg/mL (broth microdilution; isolate IU, CTX-M-14, TEM-1; no clavulanic acid).
`CC[C@H](C)[C@H](N)C(=O)N[C@@H](CC(C)C)C(=O)NCC(=O)N[C@@H](CCC(=O)O)C(=O)N[C@H](C(=O)N[C@@H](Cc1c[nH]c2ccccc12)C(=O)N[C@@H](CCCCN)C(=O)NCC(=O)N[C@H](C(=O)N[C@@H](CCCCN)C(=O)N[C@@H](CC(=O)O)C(=O)N[C@H](C(=O)N[C@@H](CC(C)C)C(N)=O)[C@@H](C)CC)[C@@H](C)CC)[C@@H](C)CC` has an MIC of 100 µM (broth microdilution; ATCC 25922; added: NaCl 150 mM).
With `C[C@@H](O)[C@H]1C(=O)N2C(C(=O)O)=C(S[C@@H]3CN[C@H](CNS(N)(=O)=O)C3)[C@H](C)[C@H]12` the MIC was < 0.09 µg/mL (BL21(DE3) carrying Ftu-1).
`CC[C@H](C)[C@H](NC(=O)[C@H](CCCCN)NC(=O)[C@H](CCCCN)NC(=O)CNC(=O)[C@H](Cc1ccccc1)NC(=O)[C@H](CCCNC(=N)N)NC(=O)[C@H](Cc1c[nH]c2ccccc12)NC(=O)[C@H](CCCCN)NC(=O)[C@@H](N)CCCCN)C(=O)N[C@@H](CCC(=O)O)C(=O)N[C@@H](CCCCN)C(=O)N[C@H](C(=O)NCC(=O)N[C@@H](CCCCN)C(=O)N[C@@H](CCCNC(=N)N)C(=O)N[C@H](C(=O)N[C@@H](Cc1ccccc1)C(=O)N[C@@H](CCCCN)C(=O)N[C@@H](C)C(=O)N[C@@H](CCC(=O)O)C(=O)N[C@@H](CCC(=O)O)C(=O)N[C@@H](CCCCN)C(=O)N[C@@H](C)C(=O)N[C@@H](CC(C)C)C(=O)N1CCC[C@H]1C(=O)N[C@H](C(=O)N[C@@H](CC(C)C)C(=O)N[C@@H](C)C(=O)NCC(=O)N[C@H](C(=O)N[C@@H](CCCCN)C(=O)N[C@@H](C)C(=O)N[C@H](C(=O)O)C(C)C)C(C)C)C(C)C)C(C)C)C(C)C` has an MIC of 1.18 µM (broth microdilution; K88, Mueller-Hinton broth; 37 °C).
With `N=C(N)NCCC[C@H](NC(=O)CCCCCNC(=O)[C@H](CCCNC(=N)N)NC(=O)[C@H](CCCNC(=N)N)NC(=O)CCCCCNC(=O)[C@H](CCCNC(=N)N)NC(=O)[C@H](CCCNC(=N)N)NC(=O)CCCCCNC(=O)[C@H](CCCNC(=N)N)NC(=O)[C@H](CCCNC(=N)N)NC(=O)CCCCCNC(=O)[C@@H](N)CCCNC(=N)N)C(=O)NCCCCCC(=O)NCCC(=O)O` the MIC was > 192 µM (ATCC 25922; 1 h, 37 °C, after 50% human serum).
The MIC of `CC[C@H](C)[C@H](NC(=O)[C@H](CCCCN)NC(=O)[C@H](CCC(=O)O)NC(=O)[C@H](CCCCN)NC(=O)[C@H](CO)NC(=O)[C@H](CCCCN)NC(=O)[C@H](CCCNC(=N)N)NC(=O)[C@H](Cc1ccccc1)NC(=O)[C@H](Cc1ccccc1)NC(=O)[C@H](CC(=O)O)NC(=O)CNC(=O)[C@H](CC(C)C)NC(=O)[C@@H](N)CC(C)C)C(=O)NCC(=O)N[C@@H](CCCCN)C(=O)N[C@@H](CCC(=O)O)C(=O)N[C@@H](Cc1ccccc1)C(=O)N[C@@H](CCCCN)C(=O)N[C@@H](CCCNC(=N)N)C(=O)N[C@H](C(=O)N[C@H](C(=O)N[C@@H](CCC(N)=O)C(=O)N[C@@H](CCCNC(=N)N)C(=O)N[C@H](C(=O)N[C@@H](CCCCN)C(=O)N[C@@H](CC(=O)O)C(=O)N[C@@H](Cc1ccccc1)C(=O)N[C@@H](CC(C)C)C(=O)N[C@@H](CCCNC(=N)N)C(=O)N[C@@H](CC(N)=O)C(=O)N[C@@H](CC(C)C)C(=O)N[C@H](C(=O)N1CCC[C@H]1C(=O)N[C@@H](CCCNC(=N)N)C(=O)N[C@H](C(=O)N[C@@H](CCC(=O)O)C(=O)N[C@@H](CO)C(=O)O)[C@@H](C)O)C(C)C)[C@@H](C)CC)C(C)C)[C@@H](C)CC` is reported as 4.2 µM (broth dilution; K12 BW25113; 18 h, 37 °C).
`C[C@@H](O)[C@H]1C(=O)N2C(C(=O)O)=C(S[C@@H]3CN[C@H](C(=O)N(C)C)C3)[C@H](C)[C@H]12` has an MIC of 32 µM (NCCP 16044 carbapenem-resistant, Mueller-Hinton broth; 16 h, 37 °C).
The MIC of `CC1(C)SC2C(NC(=O)C(NC(=O)C3=C(O)C(Cc4ccsc4)NC3=O)c3ccccc3)C(=O)N2C1C(=O)O` (stereo not drawn) is reported as 25 µg/mL (broth microdilution; Keio mutant JW5195-1; 18 h).
`CC[C@H](C)[C@H](NC(=O)[C@H](CC(C)C)NC(=O)[C@H](CCCNC(=N)N)NC(=O)[C@@H](N)CCCNC(=N)N)C(=O)N[C@@H](CCCNC(=N)N)C(=O)N[C@@H](CCCCN)C(=O)N[C@@H](CC(C)C)C(=O)N[C@@H](CCCCN)C(=O)NCC(=O)N[C@@H](CC(C)C)C(=O)N[C@@H](CCCCN)C(=O)N[C@@H](CCCCN)C(=O)N[C@@H](Cc1ccc(O)cc1)C(=O)N[C@@H](CC(C)C)C(=O)N[C@@H](Cc1ccc(O)cc1)C(=O)N[C@@H](Cc1ccccc1)C(=O)N[C@@H](CCCCN)C(=O)N[C@@H](CC(C)C)C(=O)N[C@@H](CCC(N)=O)C(=O)N[C@@H](CC(C)C)C(=O)N[C@@H](CC(C)C)C(=O)N[C@@H](CCCCN)C(=O)N[C@@H](CCCCN)C(N)=O` gave an MIC of 32 µM (broth microdilution; KCTC 1682, Mueller-Hinton broth; added: FeCl3 4 µM).
With `CC[C@H](C)[C@H](NC(=O)[C@H](CCCNC(=N)N)NC(=O)[C@H](CCCNC(=N)N)NC(=O)[C@@H](N)CCCNC(=N)N)C(=O)N[C@@H](CO)C(=O)N[C@@H](Cc1ccccc1)C(=O)N[C@@H](CC(C)C)C(=O)NCC(=O)N[C@@H](CO)C(=O)N[C@@H](CCCCN)C(=O)N[C@H](C(=O)N[C@H](C(=O)N[C@H](C(=O)N[C@@H](CCCNC(=N)N)C(=O)N[C@@H](CCCNC(=N)N)C(=O)N[C@@H](CCCCN)C(=O)N[C@@H](CCCNC(=N)N)C(N)=O)C(C)C)C(C)C)C(C)C` the MIC was 64 µM (checkerboard; 24 h, 37 °C, alone, rifampicin plate).
For `CC[C@H](C)[C@H](NC(=O)CNC(=O)[C@H](CC(=O)O)NC(=O)[C@H](CCCNC(=N)N)NC(=O)[C@@H](NC(=O)[C@H](CC(N)=O)NC(=O)[C@H](CCCNC(=N)N)NC(=O)CNC(=O)[C@@H](NC(=O)[C@H](CCCCN)NC(=O)[C@H](CCCNC(=N)N)NC(=O)[C@@H](NC(=O)[C@H](CCCCN)NC(=O)[C@H](CCCCN)NC(=O)[C@H](Cc1ccccc1)NC(=O)[C@@H](NC(=O)[C@H](CCCCN)NC(=O)[C@H](Cc1c[nH]c2ccccc12)NC(=O)[C@@H](N)CCCNC(=N)N)[C@@H](C)CC)[C@@H](C)CC)C(C)C)C(C)C)C(=O)N[C@H](C(=O)N[C@@H](CCCCN)C(=O)N[C@@H](C)C(=O)NCC(=O)N1CCC[C@H]1C(=O)N[C@@H](C)C(=O)N[C@H](C(=O)N[C@@H](C)C(=O)N[C@H](C(=O)N[C@H](C(=O)NCC(=O)N[C@@H](CCC(N)=O)C(=O)N[C@@H](C)C(=O)N[C@@H](C)C(=O)N[C@H](C(=O)N[C@H](C(=O)N[C@H](C(=O)N[C@@H](CCCCN)C(N)=O)C(C)C)C(C)C)[C@@H](C)O)C(C)C)C(C)C)C(C)C)[C@@H](C)CC`, the MIC was 2 µM (KCTC 1682, Mueller-Hinton broth; 16 h, 37 °C; growth inhibition over 99%).
The MIC of `C[C@@H](O)[C@H]1C(=O)N2C(C(=O)O)=C(S[C@@H]3CN[C@H](C(=O)N(C)C)C3)[C@H](C)[C@H]12` is reported as ≤ 0.06 µg/mL (DH5α empty vector).
For `COc1c(N2CC3CCCNC3C2)c(F)cc2c(=O)c(C(=O)OCc3cnc([N+](=O)[O-])s3)cn(C3CC3)c12` (stereo not drawn), the MIC was > 97 µM (NR 17661, fluoroquinolone-resistant).
`CC1(C)CC[C@]2(C(=O)O)CC[C@]3(C)C(=CC[C@@H]4[C@@]5(C)CC[C@H](O)C(C)(C)[C@@H]5CC[C@]43C)[C@@H]2C1` has an MIC of 512 µg/mL (D3, NDM-1/OXA-1).
The MIC of `CC[C@H](C)[C@H](NC(=O)[C@H](CCCCN)NC(=O)[C@H](CCCNC(=N)N)NC(=O)[C@H](CCCNC(=N)N)NC(=O)[C@H](CC(C)C)NC(=O)[C@H](CCCCN)NC(=O)[C@H](CCCCN)NC(=O)[C@H](Cc1ccccc1)NC(=O)[C@H](CC(C)C)NC(=O)CNC(=O)[C@H](CCCNC(=N)N)NC(=O)[C@@H](N)CCCNC(=N)N)C(=O)N[C@@H](CCCCN)C(=O)N[C@@H](CCCCN)C(=O)NCC(=O)N[C@@H](Cc1ccccc1)C(=O)N[C@@H](CCCCN)C(=O)N[C@@H](CCCCN)C(=O)N[C@H](C(=O)N[C@@H](Cc1ccccc1)C(=O)N[C@@H](CCCCN)C(=O)N[C@@H](CCCNC(=N)N)C(=O)N[C@@H](CC(C)C)C(=O)N1CCC[C@H]1C(=O)N1CCC[C@H]1C(=O)N[C@H](C(=O)NCC(=O)N[C@H](C(=O)NCC(=O)N[C@H](C(=O)N[C@@H](CO)C(=O)O)C(C)C)C(C)C)C(C)C)[C@@H](C)CC` is reported as 1.29 µM (ATCC 25922; highest concentration 50 µM).
For `CC(C)C[C@H](NC(=O)[C@H](Cc1c[nH]c2ccccc12)NC(=O)[C@H](CC(C)C)NC(=O)[C@@H](NC(=O)[C@H](CC(C)C)NC(=O)[C@H](CCCNC(=N)N)NC(=O)[C@@H](N)CCCNC(=N)N)[C@@H](C)O)C(=O)N[C@H](C(=O)N[C@@H](CC(C)C)C(=O)N[C@@H](CCCNC(=N)N)C(=O)N[C@@H](CCCNC(=N)N)C(N)=O)[C@@H](C)O`, the MIC was 4 µM (broth microdilution; 25922, Mueller-Hinton broth; 24 h, 37 °C, lowest concentration, 95% inhibition, added: BSA).
`CC(C)C[C@H](NC(=O)[C@@H](NC(=O)[C@H](CCCCN)NC(=O)[C@H](CCCCN)NC(=O)[C@@H](N)CC(C)C)C(C)C)C(=O)N[C@@H](CCCCN)C(=O)N[C@@H](C)C(=O)N[C@@H](C)C(=O)N[C@@H](C)C(=O)N[C@@H](CCCCN)C(=O)O` has an MIC of > 25 µM (TG1).
The MIC of `C/C(O)=C1\C(=O)C(CC(C)C)N(C(=O)CCCCCc2ccccc2)C1=O` (stereo not drawn) is reported as 0.39 µg/mL (K12 ΔtolC).
For `CC1=C[C@@H]2CN(C(=O)N2OS(=O)(=O)O)[C@@H]1C(N)=O`, the MIC was > 128 µg/mL (ATCC 2469, NDM-positive; compound alone).
With `CC[C@H](C)[C@H](NC(=O)[C@H](CC(C)C)NC(=O)[C@H](CCCCN)NC(=O)[C@@H](NC(=O)[C@H](C)NC(=O)[C@H](CCC(=O)O)NC(=O)[C@H](Cc1c[nH]cn1)NC(=O)[C@@H](NC(=O)[C@H](CCCCN)NC(=O)[C@H](CCC(N)=O)NC(=O)[C@H](Cc1ccccc1)NC(=O)[C@@H](NC(=O)[C@H](CCCCN)NC(=O)[C@H](CCCCN)NC(=O)[C@H](CC(C)C)NC(=O)[C@H](C)N)C(C)C)[C@@H](C)CC)[C@@H](C)CC)C(N)=O` the MIC was 4 µM (broth microdilution; CCARM 1238 resistant; 18 h, 37 °C).
